Assay results pooled from the literature.
Protocols differ between the studies behind these lines. “And” joins repeats or separate records; there may be more than shown. Numbers after ± are the reported error.
UniProt A5GZW8, sequence (whole entry, looked up): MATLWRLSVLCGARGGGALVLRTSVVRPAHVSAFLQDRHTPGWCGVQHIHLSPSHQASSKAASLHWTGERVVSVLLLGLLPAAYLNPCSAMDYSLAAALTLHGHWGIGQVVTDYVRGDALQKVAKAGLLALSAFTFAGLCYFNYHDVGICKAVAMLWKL
UniProt D0VWV4, sequence (whole entry, looked up): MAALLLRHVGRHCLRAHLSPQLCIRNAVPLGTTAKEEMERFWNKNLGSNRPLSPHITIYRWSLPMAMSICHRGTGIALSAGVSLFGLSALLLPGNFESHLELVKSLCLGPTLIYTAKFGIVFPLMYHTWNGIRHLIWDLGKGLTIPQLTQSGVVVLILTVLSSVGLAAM
UniProt Q007T0, sequence (whole entry, looked up): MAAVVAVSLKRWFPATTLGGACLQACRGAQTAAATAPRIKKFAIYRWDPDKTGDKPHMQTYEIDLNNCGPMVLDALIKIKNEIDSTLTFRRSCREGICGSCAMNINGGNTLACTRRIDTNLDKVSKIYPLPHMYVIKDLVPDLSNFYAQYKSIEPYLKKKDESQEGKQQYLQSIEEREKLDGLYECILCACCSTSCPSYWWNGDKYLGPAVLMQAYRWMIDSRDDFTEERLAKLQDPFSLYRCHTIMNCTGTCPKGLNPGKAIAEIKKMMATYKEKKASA
UniProt P35372, sequence (whole entry, looked up): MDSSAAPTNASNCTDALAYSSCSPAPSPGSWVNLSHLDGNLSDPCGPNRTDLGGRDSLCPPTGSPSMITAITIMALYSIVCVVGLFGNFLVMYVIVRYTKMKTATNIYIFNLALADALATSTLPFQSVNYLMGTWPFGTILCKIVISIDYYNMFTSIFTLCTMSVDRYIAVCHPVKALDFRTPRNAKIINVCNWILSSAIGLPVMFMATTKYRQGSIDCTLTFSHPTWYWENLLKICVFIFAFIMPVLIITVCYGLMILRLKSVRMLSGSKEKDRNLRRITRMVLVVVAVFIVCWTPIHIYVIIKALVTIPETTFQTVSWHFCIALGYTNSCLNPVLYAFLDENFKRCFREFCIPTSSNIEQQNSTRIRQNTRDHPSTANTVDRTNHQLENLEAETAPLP
UniProt Q16659, sequence (whole entry, looked up): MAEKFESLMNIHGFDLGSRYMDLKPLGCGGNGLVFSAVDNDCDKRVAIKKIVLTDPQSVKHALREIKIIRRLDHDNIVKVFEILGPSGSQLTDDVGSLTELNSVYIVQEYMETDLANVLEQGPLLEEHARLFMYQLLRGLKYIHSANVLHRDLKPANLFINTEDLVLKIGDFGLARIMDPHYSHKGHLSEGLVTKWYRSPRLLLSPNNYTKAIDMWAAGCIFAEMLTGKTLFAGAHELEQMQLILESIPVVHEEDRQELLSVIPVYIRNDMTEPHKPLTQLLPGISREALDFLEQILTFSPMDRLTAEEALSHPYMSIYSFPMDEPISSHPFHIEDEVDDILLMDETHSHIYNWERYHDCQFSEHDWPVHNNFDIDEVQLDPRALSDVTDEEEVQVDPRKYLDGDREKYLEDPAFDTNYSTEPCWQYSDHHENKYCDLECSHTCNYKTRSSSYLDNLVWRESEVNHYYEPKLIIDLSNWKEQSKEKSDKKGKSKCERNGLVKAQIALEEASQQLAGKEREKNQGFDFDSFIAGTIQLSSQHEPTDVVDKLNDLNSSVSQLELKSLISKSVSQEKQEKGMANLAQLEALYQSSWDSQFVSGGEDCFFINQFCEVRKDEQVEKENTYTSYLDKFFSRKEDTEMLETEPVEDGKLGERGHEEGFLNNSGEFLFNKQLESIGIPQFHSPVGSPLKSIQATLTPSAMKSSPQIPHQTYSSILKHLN
UniProt P13346, sequence (whole entry, unmodified, looked up): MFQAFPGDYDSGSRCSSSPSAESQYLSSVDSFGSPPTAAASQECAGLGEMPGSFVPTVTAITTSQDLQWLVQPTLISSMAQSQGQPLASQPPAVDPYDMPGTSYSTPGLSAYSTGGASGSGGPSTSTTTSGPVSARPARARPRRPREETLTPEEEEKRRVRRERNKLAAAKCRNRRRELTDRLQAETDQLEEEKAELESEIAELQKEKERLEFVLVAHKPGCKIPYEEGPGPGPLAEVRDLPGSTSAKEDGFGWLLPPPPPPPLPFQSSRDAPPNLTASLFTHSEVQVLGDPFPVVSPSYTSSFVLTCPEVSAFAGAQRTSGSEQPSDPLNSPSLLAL
UniProt Q96GW9, sequence (whole entry, looked up): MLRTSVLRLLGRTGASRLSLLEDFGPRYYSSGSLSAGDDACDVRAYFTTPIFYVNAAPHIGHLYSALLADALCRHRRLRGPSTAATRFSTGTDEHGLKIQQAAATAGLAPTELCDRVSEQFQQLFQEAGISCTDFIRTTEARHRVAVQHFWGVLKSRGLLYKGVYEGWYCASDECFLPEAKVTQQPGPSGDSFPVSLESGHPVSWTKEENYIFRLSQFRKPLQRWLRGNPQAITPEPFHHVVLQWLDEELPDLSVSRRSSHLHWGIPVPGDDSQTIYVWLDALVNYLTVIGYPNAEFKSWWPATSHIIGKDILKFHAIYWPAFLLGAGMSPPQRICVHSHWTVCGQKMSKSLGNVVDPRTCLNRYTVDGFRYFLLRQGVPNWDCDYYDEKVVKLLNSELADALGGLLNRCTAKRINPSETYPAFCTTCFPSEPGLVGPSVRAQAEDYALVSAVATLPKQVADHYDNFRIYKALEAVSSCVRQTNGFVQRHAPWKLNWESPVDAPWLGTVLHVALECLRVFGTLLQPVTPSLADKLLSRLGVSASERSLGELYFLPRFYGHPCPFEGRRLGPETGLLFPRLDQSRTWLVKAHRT
UniProt Q13131, sequence (whole entry, looked up): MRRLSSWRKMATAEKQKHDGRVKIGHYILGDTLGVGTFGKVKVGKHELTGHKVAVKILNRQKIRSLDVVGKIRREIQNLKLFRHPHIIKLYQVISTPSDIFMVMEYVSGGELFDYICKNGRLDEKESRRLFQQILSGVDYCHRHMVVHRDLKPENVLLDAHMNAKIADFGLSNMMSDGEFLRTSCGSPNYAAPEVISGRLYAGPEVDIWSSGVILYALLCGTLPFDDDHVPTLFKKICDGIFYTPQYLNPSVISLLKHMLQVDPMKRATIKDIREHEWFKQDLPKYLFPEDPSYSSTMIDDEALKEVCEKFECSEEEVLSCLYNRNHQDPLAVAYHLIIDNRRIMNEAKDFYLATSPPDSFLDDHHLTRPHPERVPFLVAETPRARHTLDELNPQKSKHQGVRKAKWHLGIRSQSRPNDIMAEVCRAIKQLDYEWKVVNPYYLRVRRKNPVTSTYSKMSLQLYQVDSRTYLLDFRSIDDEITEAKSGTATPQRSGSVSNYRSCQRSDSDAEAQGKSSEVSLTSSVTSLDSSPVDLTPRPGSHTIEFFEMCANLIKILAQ
UniProt P15066, sequence (whole entry, unmodified, looked up): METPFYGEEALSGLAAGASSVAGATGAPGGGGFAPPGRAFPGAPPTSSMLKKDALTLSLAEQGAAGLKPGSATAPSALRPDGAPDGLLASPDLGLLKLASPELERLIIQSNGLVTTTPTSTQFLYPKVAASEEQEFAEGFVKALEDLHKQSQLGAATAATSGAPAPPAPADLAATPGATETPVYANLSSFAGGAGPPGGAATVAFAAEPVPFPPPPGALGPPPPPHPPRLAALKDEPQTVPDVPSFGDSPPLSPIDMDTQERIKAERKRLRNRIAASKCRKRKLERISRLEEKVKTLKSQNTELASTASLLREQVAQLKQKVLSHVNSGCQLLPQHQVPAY
UniProt P21448, sequence (whole entry, looked up): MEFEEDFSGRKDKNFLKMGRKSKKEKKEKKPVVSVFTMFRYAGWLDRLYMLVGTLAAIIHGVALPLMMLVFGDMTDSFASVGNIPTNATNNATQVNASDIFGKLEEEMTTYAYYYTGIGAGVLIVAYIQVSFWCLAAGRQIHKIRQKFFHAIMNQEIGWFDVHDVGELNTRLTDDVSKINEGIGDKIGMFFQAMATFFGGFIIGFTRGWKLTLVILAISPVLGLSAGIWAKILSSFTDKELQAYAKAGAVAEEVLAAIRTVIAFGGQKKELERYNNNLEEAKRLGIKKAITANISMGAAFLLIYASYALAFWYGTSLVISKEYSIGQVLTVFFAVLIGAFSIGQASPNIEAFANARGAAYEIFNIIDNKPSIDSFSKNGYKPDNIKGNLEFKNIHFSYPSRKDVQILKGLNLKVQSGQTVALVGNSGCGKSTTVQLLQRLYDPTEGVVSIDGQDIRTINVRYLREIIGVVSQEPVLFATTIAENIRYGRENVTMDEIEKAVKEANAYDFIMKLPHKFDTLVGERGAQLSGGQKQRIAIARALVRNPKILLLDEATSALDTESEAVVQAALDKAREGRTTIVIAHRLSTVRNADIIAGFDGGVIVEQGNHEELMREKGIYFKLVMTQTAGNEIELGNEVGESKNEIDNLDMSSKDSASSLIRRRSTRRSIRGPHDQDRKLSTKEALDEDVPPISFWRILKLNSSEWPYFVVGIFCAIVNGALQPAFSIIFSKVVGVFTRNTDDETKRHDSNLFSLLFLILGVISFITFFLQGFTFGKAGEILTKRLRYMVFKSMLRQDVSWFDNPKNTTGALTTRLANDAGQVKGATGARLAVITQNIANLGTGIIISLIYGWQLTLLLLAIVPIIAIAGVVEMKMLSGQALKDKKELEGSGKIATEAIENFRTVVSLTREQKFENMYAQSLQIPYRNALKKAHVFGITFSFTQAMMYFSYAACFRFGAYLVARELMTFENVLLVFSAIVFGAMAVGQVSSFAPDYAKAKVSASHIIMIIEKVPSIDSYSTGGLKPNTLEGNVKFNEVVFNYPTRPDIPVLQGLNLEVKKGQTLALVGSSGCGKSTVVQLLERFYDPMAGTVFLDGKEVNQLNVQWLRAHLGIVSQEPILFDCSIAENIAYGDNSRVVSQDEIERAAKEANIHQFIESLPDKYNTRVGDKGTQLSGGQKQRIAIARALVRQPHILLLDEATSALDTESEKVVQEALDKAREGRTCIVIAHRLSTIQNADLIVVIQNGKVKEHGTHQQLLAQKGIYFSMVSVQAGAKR

| SMILES | target or system | test | system | setting | how to read | quantity | result |
| --- | --- | --- | --- | --- | --- | --- | --- |
| N=C(N)NCCC[C@@H]1NC(=O)[C@H](CCCCNC(=O)CCC(NC(=S)Nc2ccc(CC3CN(CC(=O)O)CCN(CC(=O)O)CCN(CC(=O)O)CCN3CC(=O)O)cc2)C(=O)NCCCC[C@@H]2NC(=O)[C@@H](Cc3ccc(O)cc3)NC(=O)[C@H](CC(=O)O)NC(=O)CNC(=O)[C@H](CCCNC(=N)N)NC2=O)NC(=O)[C@@H](Cc2ccc(O)cc2)NC(=O)[C@H](CC(=O)O)NC(=O)CNC1=O (stereo partly drawn) [scandium-44 labelled] | – | ex vivo γ-counting | female athymic nude mice, U-87 MG xenograft, pancreas | intravenous, 4 h, with: cRGD 50 mg/kg blocking | – | tissue uptake | 0.019 ± 0.005 %ID/g |
| Cc1ccc(OCCN(C)C)cc1C(=O)N[C@H](C)c1cc(-c2ccco2)nc2ccccc12 | Vero E6 | – | – | 15.62 µM | – | viability | 69.6% and 83.1% |
| CC(C)(C)C(=O)OCOP(=O)(OCOC(=O)C(C)(C)C)C1CCCN(O)C1=O (stereo not drawn) | UO-31 | – | – | – | – | CC50 | > 100 µM |
| C[C@@H](Cc1ccsc1)NC(=O)NC[C@H](Cc1ccc(O)cc1)N(C)C | OPRM1 (Homo sapiens, UniProt P35372) | agonist | HEK-293T | – | – | Emax | 94 ± 3% |
| C#CCNC(=O)CN(Cc1ccc(-c2ccc(F)c(CN3CCS(=O)(=O)CC3)n2)cc1)C(=O)c1ccc(C2(C(F)(F)F)N=N2)cc1 | ABCB1 (Cricetulus griseus, UniProt P21448) | chemical proteomics | CHO cells overexpressing CB2 | 10 µM | reference: untreated | photoaffinity enrichment | > 13 fold |
| CN(C)CCCSC(=S)N1CCN(C(=O)/C=C/c2coc3ccccc3c2=O)CC1 | Nucleoprotein (N, Tomato spotted wilt virus, UniProt P25999, R94A) | binding, microscale thermophoresis | – | 250 µM | dose series | MST response | 846 a.u. |
| O=C1NC(=O)c2c1c1cc(F)c[n+]3c1c1c2c2cc(O)ccc2[n]1[Ru-4]312([N]=C=S)[S+]3CC[S+]1CC[S+]2CC3 (stereo not drawn) | Rock2 (Rattus norvegicus, UniProt Q62868) | enzyme activity | – | 100 nM, rat enzyme, with: 10 µM ATP | reference: untreated | remaining activity | 80% |
| CC(C)CC(O)(CC(C)C)c1cn(C(=O)N2CCCC2)nn1 | Patatin-like phospholipase domain-containing protein 7 (Pnpla7, Mus musculus, UniProt A2AJ88) | probe labelling, inhibitor, item: Pnpla7 | mouse, brain | i.p., 0.8 mg/kg, 4 h, protein level | reference: treated over vehicle mice, lower = stronger inhibition | activity ratio-of-ratios | 1.84 |
| C[C@@H](O)[C@@H]1NC(=O)[C@@H](NC(=O)CCOCCOCCOCCOCCNC(=O)c2ccc(NN)nc2)CSSC[C@@H](C(=O)O)NC(=O)[C@H](Cc2c[nH]cn2)NC(=O)[C@H](CO)NC(=O)[C@H](Cc2ccccc2)NC(=O)[C@@H]2CCCN2C(=O)[C@H](CO)NC(=O)[C@@H]2CCCN2C1=O [technetium-99m labelled] | – | – | mouse HCT-116 xenograft, stomach | intravenous, 37 MBq, postmortem after imaging | – | tissue uptake | 0.68 ± 0.34 %ID/g |
| CON(C(=O)c1cn(C)nc1C(F)F)C(C)Cc1c(Cl)cc(Cl)cc1Cl (stereo not drawn) | SDHD/SDHC/SDHB (Sus scrofa, UniProt A5GZW8+D0VWV4+Q007T0) | enzyme activity, inhibitor, DCIP reduction | pig | 0.6 µM, with: DCIP 160 µM | – | reaction velocity | 0.0122 µM/s and 0.0113 µM/s and 0.013 µM/s |
| CC(C)[C@H]1NC(=O)C[C@H]2/C=C/CCSSC[C@@H](NC1=O)C(=O)N[C@H](Cc1cccc3ccccc13)C(=O)NCC(=O)O2 | 5'-AMP-activated protein kinase catalytic subunit alpha-1, with beta1, gamma1 (PRKAA1, Homo sapiens, UniProt Q13131) | – | – | 10 µM | – | inhibition | -5.9% |
| COc1ccccc1-c1n[nH]c2nc(N[C@H]3CC[C@H](NS(=O)(=O)CC(C)C)CC3)ncc12 | cdc2-related kinase 12 (Leishmania donovani, UniProt A0A3S7WQK2) | kinobead competition pull-down | Leishmania donovani, cell extract | 2 µM, unit not given | reference: vehicle | remaining binding | 0.1 |
| O=C1NC2(CC2)COc2ncc(F)cc2[C@H]2COCCN2c2ccn3ncc1c3n2 | – | – | Sprague-Dawley rat, male, heart | oral, 2.5 mg/kg/day, 4 weeks, end of treatment | – | organ-to-brain weight ratio | 73.5 ± 8.01% |
| N[C@H](C(=O)N1CCCC1)C1CCN(c2nccc3c(-c4ncc(Cl)cc4Cl)cccc23)CC1 | ADRB2 (Homo sapiens, UniProt P07550) | functional response, agonist | – | 10 µM | – | response | 1% |
| CS(C)(=O)=Nc1ccc(-c2ccc(-c3nc4cc(O[C@@H]5CO[C@H]6[C@@H]5OC[C@H]6O)[nH]c4cc3F)cc2)cc1 | Cacna1b (Rattus norvegicus, UniProt Q02294) | ligand displacement, radioligand | – | 10 µM | – | inhibition | -16% |
| CCOC(=O)[C@@H]1Cc2c(cc([N+](=O)[O-])cc2[N+](=O)[O-])[C@H](O)[C@]12C(=O)Nc1ccc(Br)cc12 | BRAF (Homo sapiens, UniProt P15056, V600E) | binding, competition with immobilised ligand | – | 0.1 µM | – | remaining binding | 72% |
| Fc1ccc2[nH]c(NCCCNCc3cc(Cl)cc(Cl)c3)nc2c1 | MARS2 (Homo sapiens, UniProt Q96GW9) | enzyme activity | – | – | reference: human IC50 over T. brucei IC50 | selectivity ratio | > 63.5 |
| CN(C)[C@H]1C[C@@]23CC[C@@]4(O2)C(=CC[C@]2(C)[C@@H](c5ccc6ccncc6c5)CC[C@H]24)C=C3[C@@H](O)[C@@H]1O | MAPK6 (Homo sapiens, UniProt Q16659) | ATP probe labelling, inhibitor, KiNativ profiling | – | 0.1 µM | – | inhibition | 2.5% |
| Cc1cc(Oc2nc(N3CC[C@@H](c4ccncc4)C3)ncc2F)[nH]n1 | Mycobacterium tuberculosis | OD | H37Rv PurF CRISPRi knockdown | 3.1e-05 µM, with: anhydrotetracycline low | – | normalised growth | 96% and 97% |
| COc1ccc(C(=O)CCl)c2c1C(=O)CO2 | Fosb/Jund, ΔFosB bZIP domain (Mus musculus, UniProt P13346+P15066) | intact mass LC-MS, item: JUND adduct, HCl lost | – | concentration not given | reference: total JUND species | relative abundance | 24.5% |
| CC[C@H](C)[C@H](NC(=O)[C@H](CO)NC(=O)[C@H](Cc1ccc(O)cc1)NC(=O)[C@H](Cc1ccc(O)cc1)NC(=O)[C@H](CC(N)=O)NC(=O)CNC(=O)[C@H](CO)NC(=O)[C@H](Cc1ccc(O)cc1)NC(=O)[C@H](CO)NC(=O)[C@H](CO)NC(=O)[C@H](CC(N)=O)NC(=O)COCCOCCNC(=O)CN1CCN(CC(=O)O)CCN(CC(=O)O)CCN(CC(=O)O)CC1)C(=O)N[C@@H](CC(C)C)C(N)=O [copper-64 labelled] | – | dynamic PET | tamoxifen-induced PDAC mouse model, metastases | 0.9 min, CLDN4-expressing tumours | – | maximum metastasis uptake | 20.7 %IA/cc |

Some of these lines once more:
| SMILES | target or system | test | system | setting | how to read | quantity | result |
| --- | --- | --- | --- | --- | --- | --- | --- |
| COc1ccc(C(=O)CCl)c2c1C(=O)CO2 | Fosb/Jund, ΔFosB bZIP domain (Mus musculus, UniProt P13346+P15066) | intact mass LC-MS, item: JUND adduct, HCl lost | – | concentration not given | reference: total JUND species | relative abundance | 24.5% |
| CC[C@H](C)[C@H](NC(=O)[C@H](CO)NC(=O)[C@H](Cc1ccc(O)cc1)NC(=O)[C@H](Cc1ccc(O)cc1)NC(=O)[C@H](CC(N)=O)NC(=O)CNC(=O)[C@H](CO)NC(=O)[C@H](Cc1ccc(O)cc1)NC(=O)[C@H](CO)NC(=O)[C@H](CO)NC(=O)[C@H](CC(N)=O)NC(=O)COCCOCCNC(=O)CN1CCN(CC(=O)O)CCN(CC(=O)O)CCN(CC(=O)O)CC1)C(=O)N[C@@H](CC(C)C)C(N)=O [copper-64 labelled] | – | dynamic PET | tamoxifen-induced PDAC mouse model, metastases | 0.9 min, CLDN4-expressing tumours | – | maximum metastasis uptake | 20.7 %IA/cc |
